Experimental data gathered from unrelated publications.
Numbered parts are unrelated; each lists some results of a single study. Changes are numbered by the printed parent chain.

Series 1
Target: CCND2, cyclin fold, Cln2 fusion (human)
Method: yeast growth competition, sequencing
Medium: yeast
Notes: weak parent motif
Reference: not given
Reading: higher = stronger binding
Starting sequence: SAMHD1 docking peptide (human); ASKSRVQLFKDDP
Substitution	normalised enrichment score
Q7D	0.0743
R5S	-0.229
L8C	0.229
S4D	0.335
F9S	-0.118
V6N	0.129
S2P	-0.049
F9A	0.199
D12H	0.0335
S4I	0.154
D12G	-0.0856
L8Y	0.433
K10E	0.207
K3H	0.447
V6Q	-0.544
K3I	0.333
K3V	0.13
L8A	-0.127
L8E	0.2
D11L	-0.468
S2A	0.0808
R5F	-0.0446
D12L	-0.265
R5Q	0.203
F9R	0.313

Series 2
Target: RNA binding protein fox-1 homolog 2, RRM domain, GST-SBP tag (RBFOX2, Homo sapiens, UniProt O43251-10, residues 100-194)
Method: RNA Bind-n-Seq
Form: RNA
Medium: in vitro
Concentration: 365 nM
Notes: natural RNA segment, single round, ends assumed
Reference: no-protein control
Reading: higher = stronger binding
All sequences stand within: GGGAGUUCUACAGUCCGACGAUC … UGGAAUUCUCGGGUGCCAA
Construct (chain): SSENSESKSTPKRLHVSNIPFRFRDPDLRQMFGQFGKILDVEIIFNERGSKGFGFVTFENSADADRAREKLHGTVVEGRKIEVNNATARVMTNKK
Strand	RBNS enrichment (R)
UGUUUGGGCCUUCCCCAUCCUAUUGGACUGGCUGAUGCUCCUAGUUUAUAAUGUUCUGGCGUUGUAGCAGAAGGUUGGAUGACACACAAGCAUCUGAAACGUGCCAGCCU	0.284
CUCAGGGCCACUUUGAGUGUGAUGAGAUACCCAGGAACACGUGUGCCCACAGCUGAAGUUUUACAUUACGUUUUCAAUUAAGUUGCCAACAUUUUAACAACUGGCACACA	0.402
CAUUCAUGUUCUCAUUCAUGAUGUUCAUGAUCUUGAGAUCUAUCUGCUGCAGUUUUUUGACUCCUGUCUGGUGGAACAUCCUGGAUUUCUUGGAUUUUUAGGUGUAAUUU	0.404
UUCCCUGACUUUACAUGGUGUUUUGUUAAUGCAAAUCCGGGAAGCAGGUGUGAUUGCUUUUUGCUCGUAGAUAUUAUCCUAAGUUGAAAUCCCCUAAAUCUCCCUUAGUA	0.806
CAGCUGAAGCAAGAGGCUGAUUGACUGGCUGCUCACUCAGGCAGGUGGCCUGCCCUGGCAUCCUGUAGAUUCUGAGCAGGUUGAGAUGUGGAUAUCUCCAUGGGAAGCUU	0.445
UGAUAGUUCUGAAGGCAUGAGCAAGGCUUCAGAAAUGAUCACCACGCUUGCAGUUGAAAGUGCCAGUGUCAAAGAAAGUGUUGAGAAGCUGCCUCUUCAGUGCAAAGAUG	1.88
CCUGUAAUUACUGCCUUGCCAUUCUGCCCCUGGACCCUUCUCUCCGGACCAGGGAGGCGUCCCUCCCUAGGAGCCACACAUUAUACUCCAAGUCCCUGCCGGGCUCCGCC	0.732
GCGUAAAGCAGAACAGCCUCCCGAAUGAAGCGUUGCCAUUGAACUCACCAGUGAGUUAGCAGCACGUGUUCCCGACAUAACAUUGUACUGUAAUGGAGUGAGCGUAGCAG	0.912

Series 3
Target: Sal-like protein 4, full length isoform B (SALL4, Homo sapiens, UniProt Q9UJQ4-2, residues 1-616)
Method: universal PBM
Form: double-stranded DNA, one strand shown
Medium: in vitro
Concentration: not given
Notes: 8-mer, flanks averaged, mean of replicates
Reading: higher = stronger binding
Residues (chain): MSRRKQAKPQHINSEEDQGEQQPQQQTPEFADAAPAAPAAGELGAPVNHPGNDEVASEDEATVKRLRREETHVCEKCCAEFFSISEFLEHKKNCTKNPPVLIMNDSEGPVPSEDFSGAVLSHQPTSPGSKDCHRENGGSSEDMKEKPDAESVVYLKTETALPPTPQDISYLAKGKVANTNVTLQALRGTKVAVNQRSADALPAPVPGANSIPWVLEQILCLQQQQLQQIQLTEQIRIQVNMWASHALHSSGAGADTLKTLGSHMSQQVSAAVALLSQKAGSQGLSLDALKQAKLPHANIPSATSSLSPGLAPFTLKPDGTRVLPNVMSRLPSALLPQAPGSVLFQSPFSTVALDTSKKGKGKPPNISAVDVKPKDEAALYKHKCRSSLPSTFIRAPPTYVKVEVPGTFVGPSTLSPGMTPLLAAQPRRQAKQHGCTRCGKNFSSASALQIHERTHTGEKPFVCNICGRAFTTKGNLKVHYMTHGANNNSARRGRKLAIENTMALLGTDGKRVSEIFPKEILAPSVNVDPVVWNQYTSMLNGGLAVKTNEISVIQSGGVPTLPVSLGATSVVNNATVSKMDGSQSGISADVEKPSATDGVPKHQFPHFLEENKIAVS
Strand	E-score
AGAGACCA	-0.159
CTCGACGA	-0.191
CTGCAGCA	-0.148
CGCGGACA	-0.0663
AGGTGAAA	0.0748
ATGTAGCC	-0.00669
GACGAGAC	-0.0826
CGCGGTAC	-0.288
ACGACCTC	-0.131
CGATGGCG	-0.283
GTAATCAC	0.0827
CACATTCG	0.0847
GCCCTCTA	-0.211
AAGTGAGA	0.0134
ACTATAAT	0.364
GAAACGTC	-0.0581
CCATAGTA	0.0402
ACGCCCGC	-0.305
ACCTAAGG	-0.216
CTGGGATC	-0.228
AAGACGCG	-0.1
CCGGTGTA	-0.14
CGTGTTTC	-0.0286

Series 4
Target: Centromere-binding protein 1, full length, N-terminal tag (CBF1, Saccharomyces cerevisiae, UniProt P17106, residues 1-351)
Chain of UniProt P17106 (whole entry, looked up): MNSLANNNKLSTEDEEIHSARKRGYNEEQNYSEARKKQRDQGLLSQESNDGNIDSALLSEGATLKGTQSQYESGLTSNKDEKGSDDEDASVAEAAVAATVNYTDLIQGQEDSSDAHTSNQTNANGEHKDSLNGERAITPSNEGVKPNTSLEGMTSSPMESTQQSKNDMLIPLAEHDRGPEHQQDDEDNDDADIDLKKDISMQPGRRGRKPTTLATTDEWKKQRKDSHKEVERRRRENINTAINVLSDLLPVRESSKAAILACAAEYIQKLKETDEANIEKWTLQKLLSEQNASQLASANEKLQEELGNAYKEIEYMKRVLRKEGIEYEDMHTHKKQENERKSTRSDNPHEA
Method: protein-binding microarray
Form: double-stranded DNA, one strand shown
Medium: in vitro
Concentration: 0.8 µM
Notes: whole 60-bp probe, no competitor
Reading: higher = stronger binding
All sequences stand within: … GTCTTGATTCGCTTGACGCTGCTG
Strand	fluorescence intensity [a.u.]
CCTAACTACTATAACTATCACATATAGCTTCGTACA	557
GAATGTATGGTGCGTCACCTTCTTTTTTTTAGTTAG	510
GAAAACTAGTTCGATCACGAATTAATCCAATCTTAG	541
CTAGCTATTACCCGCTCCGTGATTTTGGTCGTTTTC	566
CCTAACTACTATAGACACGAAGAATAGCTTCGTACA	501
CTATCTACGTTCTCAATGGTGGTGTTGAGCTCTTTC	534
CTAGTCATCTTCGCGCGCGTGCTAAAAAAAACGTTC	1240
CTAACACCCATTCATCACGTGTAATTGGACATCTTC	5870
CTAACATTCGTCAAAGTCACGAGGAACCTTGACTTC	2120
GAATAATGGTTTATGCACGTGAATATCACGTGATAG	27300
CTATAAAAAATACATCAGATAGTGTTTCGATGTTTC	506
GAAATTTTTTGCATCCATGATCACTGTTGGTAATAG	569
GAACCTCTAAATAACAGCATGATGCAACAGCTCTAG	529
GAAGTAAAGCACGACCACGTATGGATTAAGGACTAG	542
GAAACAGGTTTCCTTCATCTCCTGTATATGGCCTAG	475
TGTACGAAGCTATTGCACACGAATATAGTAGTTAGG	533
CTAAAGTTGAAGGTGCACGCTTGAGGCGCTCCTTTC	472
CCTAACTACTATAACGTGGCCGCATAGCTTCGTACA	539
GAAAGCCAACCTCATCACGATGAAGAAGATGTTTAG	560

For quick reference, copied from above (series 1):
Substitution	normalised enrichment score
K10E	0.207
S2A	0.0808
F9R	0.313
F9A	0.199
Q7D	0.0743
